Measurements pooled from the literature.
A part holds a random share of what one study measured.
Chain of UniProt P10721 (whole entry, unmodified, looked up): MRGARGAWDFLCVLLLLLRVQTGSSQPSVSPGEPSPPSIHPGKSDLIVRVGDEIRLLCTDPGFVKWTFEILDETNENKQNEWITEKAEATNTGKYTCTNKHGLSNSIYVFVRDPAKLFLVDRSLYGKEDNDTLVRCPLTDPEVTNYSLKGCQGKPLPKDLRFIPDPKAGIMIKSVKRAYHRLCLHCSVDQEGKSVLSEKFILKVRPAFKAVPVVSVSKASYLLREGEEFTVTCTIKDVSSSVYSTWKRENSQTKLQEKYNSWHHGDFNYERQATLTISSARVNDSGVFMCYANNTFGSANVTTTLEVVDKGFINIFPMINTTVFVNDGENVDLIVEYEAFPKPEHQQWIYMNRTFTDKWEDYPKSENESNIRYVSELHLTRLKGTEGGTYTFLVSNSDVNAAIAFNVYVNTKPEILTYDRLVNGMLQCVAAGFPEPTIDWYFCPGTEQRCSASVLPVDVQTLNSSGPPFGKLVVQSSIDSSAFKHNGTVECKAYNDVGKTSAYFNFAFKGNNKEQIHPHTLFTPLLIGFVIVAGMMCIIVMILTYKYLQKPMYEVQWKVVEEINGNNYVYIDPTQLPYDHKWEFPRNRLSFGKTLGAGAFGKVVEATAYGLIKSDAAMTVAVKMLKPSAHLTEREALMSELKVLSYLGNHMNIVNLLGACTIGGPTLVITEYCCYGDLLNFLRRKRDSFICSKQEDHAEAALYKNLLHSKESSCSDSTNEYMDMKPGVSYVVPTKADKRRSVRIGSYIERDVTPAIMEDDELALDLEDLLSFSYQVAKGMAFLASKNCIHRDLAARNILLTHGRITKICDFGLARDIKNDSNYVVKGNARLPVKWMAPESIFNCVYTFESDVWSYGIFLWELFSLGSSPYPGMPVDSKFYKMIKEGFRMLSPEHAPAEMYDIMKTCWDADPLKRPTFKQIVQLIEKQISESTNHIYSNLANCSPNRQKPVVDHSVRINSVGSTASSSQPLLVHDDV
Chain of UniProt P07947 (whole entry, looked up): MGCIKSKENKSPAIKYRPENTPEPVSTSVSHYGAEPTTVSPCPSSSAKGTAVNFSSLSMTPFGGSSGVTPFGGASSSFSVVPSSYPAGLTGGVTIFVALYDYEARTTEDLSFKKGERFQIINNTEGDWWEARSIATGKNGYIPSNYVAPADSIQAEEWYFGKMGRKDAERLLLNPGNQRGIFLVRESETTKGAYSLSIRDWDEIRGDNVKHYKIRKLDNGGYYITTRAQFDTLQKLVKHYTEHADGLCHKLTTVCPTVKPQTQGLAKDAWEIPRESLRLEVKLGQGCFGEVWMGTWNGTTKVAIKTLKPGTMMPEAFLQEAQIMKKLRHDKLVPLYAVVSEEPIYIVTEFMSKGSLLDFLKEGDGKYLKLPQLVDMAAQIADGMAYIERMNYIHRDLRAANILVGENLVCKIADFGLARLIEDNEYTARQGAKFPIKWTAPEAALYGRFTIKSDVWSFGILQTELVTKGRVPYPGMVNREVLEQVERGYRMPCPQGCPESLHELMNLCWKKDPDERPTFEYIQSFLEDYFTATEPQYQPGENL
Chain of UniProt P54762 (whole entry, looked up): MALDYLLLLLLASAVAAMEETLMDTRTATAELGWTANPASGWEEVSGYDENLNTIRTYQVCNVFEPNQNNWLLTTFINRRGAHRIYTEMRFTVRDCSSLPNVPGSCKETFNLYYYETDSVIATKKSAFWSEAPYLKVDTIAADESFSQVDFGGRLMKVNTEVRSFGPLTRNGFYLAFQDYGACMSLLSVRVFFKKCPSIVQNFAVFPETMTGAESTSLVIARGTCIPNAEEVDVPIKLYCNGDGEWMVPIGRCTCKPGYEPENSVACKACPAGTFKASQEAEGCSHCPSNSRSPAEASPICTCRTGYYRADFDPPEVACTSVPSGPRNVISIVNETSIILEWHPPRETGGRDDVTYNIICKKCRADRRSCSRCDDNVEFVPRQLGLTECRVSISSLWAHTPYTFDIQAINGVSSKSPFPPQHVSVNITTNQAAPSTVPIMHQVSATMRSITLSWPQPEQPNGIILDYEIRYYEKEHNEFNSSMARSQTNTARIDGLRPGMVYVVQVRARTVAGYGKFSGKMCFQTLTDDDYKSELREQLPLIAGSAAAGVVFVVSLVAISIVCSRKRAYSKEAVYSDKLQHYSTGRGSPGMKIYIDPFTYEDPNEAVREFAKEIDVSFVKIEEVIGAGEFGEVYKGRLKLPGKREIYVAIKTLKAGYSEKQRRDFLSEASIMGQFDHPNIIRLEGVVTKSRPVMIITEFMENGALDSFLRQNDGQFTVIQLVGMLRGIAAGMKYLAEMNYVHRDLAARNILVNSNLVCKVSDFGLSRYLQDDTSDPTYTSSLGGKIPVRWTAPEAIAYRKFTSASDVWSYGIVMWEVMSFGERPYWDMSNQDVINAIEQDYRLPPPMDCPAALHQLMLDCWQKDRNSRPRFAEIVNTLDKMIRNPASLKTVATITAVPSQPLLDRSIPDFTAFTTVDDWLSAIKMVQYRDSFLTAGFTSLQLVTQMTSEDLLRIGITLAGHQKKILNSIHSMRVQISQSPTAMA
Chain of UniProt P41279 (whole entry, looked up): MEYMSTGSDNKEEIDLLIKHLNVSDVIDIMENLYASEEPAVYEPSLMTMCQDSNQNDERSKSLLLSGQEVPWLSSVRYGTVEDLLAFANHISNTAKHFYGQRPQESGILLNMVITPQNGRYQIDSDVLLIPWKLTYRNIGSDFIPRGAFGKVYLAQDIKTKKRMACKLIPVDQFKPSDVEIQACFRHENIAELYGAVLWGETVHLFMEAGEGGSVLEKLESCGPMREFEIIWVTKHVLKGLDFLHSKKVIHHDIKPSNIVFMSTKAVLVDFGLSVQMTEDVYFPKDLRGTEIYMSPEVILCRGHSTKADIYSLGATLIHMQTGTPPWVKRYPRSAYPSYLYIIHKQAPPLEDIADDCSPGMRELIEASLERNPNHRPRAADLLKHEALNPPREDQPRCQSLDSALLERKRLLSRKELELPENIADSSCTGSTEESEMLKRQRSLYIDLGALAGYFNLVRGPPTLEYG
Chain of UniProt Q15139 (whole entry, looked up): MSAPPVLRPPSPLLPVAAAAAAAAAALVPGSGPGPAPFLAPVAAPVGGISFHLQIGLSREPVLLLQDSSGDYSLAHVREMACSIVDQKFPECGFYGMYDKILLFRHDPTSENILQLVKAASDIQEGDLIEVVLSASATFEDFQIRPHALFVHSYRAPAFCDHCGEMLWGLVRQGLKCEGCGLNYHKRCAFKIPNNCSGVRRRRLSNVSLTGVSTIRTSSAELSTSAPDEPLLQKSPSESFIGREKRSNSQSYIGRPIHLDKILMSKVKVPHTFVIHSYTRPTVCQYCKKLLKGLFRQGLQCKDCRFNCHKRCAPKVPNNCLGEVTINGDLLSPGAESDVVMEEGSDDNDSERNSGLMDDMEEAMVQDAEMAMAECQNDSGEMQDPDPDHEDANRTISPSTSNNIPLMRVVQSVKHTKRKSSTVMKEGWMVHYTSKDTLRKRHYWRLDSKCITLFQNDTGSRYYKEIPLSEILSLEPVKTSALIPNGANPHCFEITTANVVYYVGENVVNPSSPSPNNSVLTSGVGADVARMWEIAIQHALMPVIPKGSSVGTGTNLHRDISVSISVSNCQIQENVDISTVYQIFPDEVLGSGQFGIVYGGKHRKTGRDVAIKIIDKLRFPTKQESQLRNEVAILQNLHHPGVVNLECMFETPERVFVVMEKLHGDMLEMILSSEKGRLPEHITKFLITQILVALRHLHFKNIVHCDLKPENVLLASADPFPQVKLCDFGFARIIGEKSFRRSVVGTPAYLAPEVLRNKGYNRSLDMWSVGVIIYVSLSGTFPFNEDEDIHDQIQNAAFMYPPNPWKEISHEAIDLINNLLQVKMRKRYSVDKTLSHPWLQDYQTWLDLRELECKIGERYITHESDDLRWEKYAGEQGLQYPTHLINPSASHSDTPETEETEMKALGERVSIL

Study 1
SMILES: N#Cc1ccc(Nc2ccc3[nH]c(=O)[nH]c3c2)c(Cl)c1
Method: competition with immobilised ligand
Tested at: 1 µM
For Ephrin type-B receptor 1 (EPHB1, Homo sapiens, UniProt P54762); cell-free assay: remaining binding read 93%.
For Homeodomain-interacting protein kinase 1 (HIPK1, Homo sapiens, UniProt Q86Z02); cell-free assay: remaining binding read 82%.
It gave 82% for remaining binding (1-phosphatidylinositol 3-phosphate 5-kinase (PIKFYVE, Homo sapiens, UniProt Q9Y2I7); cell-free assay).
It gave 100% for remaining binding (Phosphatidylinositol 4,5-bisphosphate 3-kinase catalytic subunit alpha isoform (PIK3CA, Homo sapiens, UniProt P42336, H1047Y); cell-free assay).
The remaining binding was 100% (Tyrosine-protein kinase Yes (YES1, Homo sapiens, UniProt P07947); cell-free assay).
It gave 100% for remaining binding (Mast/stem cell growth factor receptor Kit (KIT, Homo sapiens, UniProt P10721); cell-free assay).
Activated CDC42 kinase 1 (TNK2, Homo sapiens, UniProt Q07912); cell-free assay — remaining binding: 90%.
It gave 95% for remaining binding (Serine/threonine-protein kinase 38 (STK38, Homo sapiens, UniProt Q15208); cell-free assay).
The remaining binding was 100% (BDNF/NT-3 growth factors receptor (NTRK2, Homo sapiens, UniProt Q16620); cell-free assay).
It gave 97% for remaining binding (Serine/threonine-protein kinase ICK (CILK1, Homo sapiens, UniProt Q9UPZ9); binding).
It gave 100% for remaining binding (Tyrosine-protein kinase ABL1, non-phosphorylated (ABL1, Homo sapiens, UniProt P00519); cell-free assay).
It gave 100% for remaining binding (Serine/threonine-protein kinase 4 (STK4, Homo sapiens, UniProt Q13043); cell-free assay).
The remaining binding was 77% (Mitogen-activated protein kinase kinase kinase kinase 5 (MAP4K5, Homo sapiens, UniProt Q9Y4K4); cell-free assay).
It gave 100% for remaining binding (Dual specificity protein kinase CLK1 (CLK1, Homo sapiens, UniProt P49759); cell-free assay).
For TRAF2 and NCK-interacting protein kinase (TNIK, Homo sapiens, UniProt Q9UKE5); cell-free assay: remaining binding read 99%.
For Mast/stem cell growth factor receptor Kit (KIT, Homo sapiens, UniProt P10721, L576P); cell-free assay: remaining binding read 89%.
The remaining binding was 100% (Ribosomal protein S6 kinase alpha-3, N-terminal kinase domain (RPS6KA3, Homo sapiens, UniProt P51812); cell-free assay).
The remaining binding was 100% (Citron Rho-interacting kinase (CIT, Homo sapiens, UniProt O14578); cell-free assay).
Serine/threonine-protein kinase N1 (PKN1, Homo sapiens, UniProt Q16512); cell-free assay — remaining binding: 100%.
The remaining binding was 100% (Dual specificity tyrosine-phosphorylation-regulated kinase 1A (DYRK1A, Homo sapiens, UniProt Q13627); cell-free assay).
For Receptor-interacting serine/threonine-protein kinase 1 (RIPK1, Homo sapiens, UniProt Q13546); cell-free assay: remaining binding read 100%.
Serine/threonine-protein kinase Nek10 (NEK10, Homo sapiens, UniProt Q6ZWH5); cell-free assay — remaining binding: 100%.

Study 2
Structure (SMILES): COc1ccc(Cl)cc1NC(=O)Nc1cc(C)nc2ccccc12
Read-out: enzyme activity
Mode: inhibitor
Tested at: 0.5 µM
Relative to: control
The remaining activity was 93.4% (Aurora kinase A (AURKA, Homo sapiens, UniProt O14965)).
Calcium/calmodulin-dependent protein kinase type 1G (CAMK1G, Homo sapiens, UniProt Q96NX5) — remaining activity: 102%.
Casein kinase II subunit alpha' (CSNK2A2, Homo sapiens, UniProt P19784) — remaining activity: 96%.
For Proto-oncogene tyrosine-protein kinase receptor Ret (RET, Homo sapiens, UniProt P07949): remaining activity read 102%.
The remaining activity was 103% (Myotonin-protein kinase (DMPK, Homo sapiens, UniProt Q09013)).
Serine/threonine-protein kinase BRSK1 (BRSK1, Homo sapiens, UniProt Q8TDC3) — remaining activity: 92.8%.
The remaining activity was 98.9% (Dual specificity tyrosine-phosphorylation-regulated kinase 4 (DYRK4, Homo sapiens, UniProt Q9NR20)).
The remaining activity was 109% (G protein-coupled receptor kinase 5 (GRK5, Homo sapiens, UniProt P34947)).
Serine/threonine-protein kinase D1 (PRKD1, Homo sapiens, UniProt Q15139) — remaining activity: 96.6%.
For NT-3 growth factor receptor (NTRK3, Homo sapiens, UniProt Q16288): remaining activity read 102%.
It gave 89.7% for remaining activity (Serine/threonine-protein kinase N2 (PKN2, Homo sapiens, UniProt Q16513)).
It gave 101% for remaining activity (Cyclin-dependent kinase 7 (CDK7, Homo sapiens, UniProt P50613)).
It gave 86% for remaining activity (Mitogen-activated protein kinase 10 (MAPK10, Homo sapiens, UniProt P53779)).
It gave 92.5% for remaining activity (Proto-oncogene tyrosine-protein kinase ROS (ROS1, Homo sapiens, UniProt P08922)).
It gave 88.9% for remaining activity (Protein-tyrosine kinase 2-beta (PTK2B, Homo sapiens, UniProt Q14289)).
It gave 96.7% for remaining activity (Rho-associated protein kinase 2 (ROCK2, Homo sapiens, UniProt O75116)).
STE20-like serine/threonine-protein kinase (SLK, Homo sapiens, UniProt Q9H2G2) — remaining activity: 98.8%.
Epidermal growth factor receptor (EGFR, Homo sapiens, UniProt P00533) — remaining activity: 98%.
The remaining activity was 99.5% (Mitogen-activated protein kinase kinase kinase 8 (MAP3K8, Homo sapiens, UniProt P41279)).
It gave 98.6% for remaining activity (Cyclin-dependent kinase 2, with cyclin A (CDK2, Homo sapiens, UniProt P24941)).
It gave 98% for remaining activity (Mitogen-activated protein kinase kinase kinase 2 (MAP3K2, Homo sapiens, UniProt Q9Y2U5)).
For Homeodomain-interacting protein kinase 3 (HIPK3, Homo sapiens, UniProt Q9H422): remaining activity read 99.1%.

Study 3
Host: human
Matrix: microsomes or S9
Tested at: 2 µM
Time: 0.5 h
Cc1cc(NCCCc2nc(C(C)C)no2)nc(-c2ccc(S(C)(=O)=O)cc2)n1 has a remaining compound of 15.2%.
With CC(NNC(=O)c1ccccc1Br)C(=O)Nc1sccc1C#N (centres unmarked) the remaining compound was 57.4%.
Cn1cnnc1C1CCCN1c1ncnc2c1c(Br)nn2C (centres unmarked) has a remaining compound of over 100%.
For CNC(=O)c1cc(S(=O)(=O)NC(C)C)cs1, the remaining compound was over 100%.
The remaining compound of Cc1ccc(Nc2cc(C)n3c(=O)[nH]nc3n2)cc1F is reported as 62.4%.
O=C1CCc2cc(S(=O)(=O)Nc3ccc(Cc4ccncc4)cc3)ccc2N1 has a remaining compound of 51.8%.
For CCOc1cc(-c2nnc3[nH]c(=O)n(C)c(=O)c3n2)ccc1OC(C)C, the remaining compound was 86.2%.
With CCCn1cc(S(=O)(=O)N2CCC(c3nc4cnccn4c3NC(C)(C)C)CC2)c(C)n1 the remaining compound was 2%.

Study 4
SMILES: CC(C)n1cnc(-c2ccc(F)cc2)c1-c1ncc(C(=O)Nc2ccc(N3CCN(C)CC3)cc2)[nH]1
Method: phase 2a trial
Host: idiopathic pulmonary fibrosis patients
It gave 0% for “patients with productive cough” (60 mg once daily, grade 2 emergent event).
For all arms, grade 4 emergent event: “patients with productive cough” read 0%.
It gave 0% for “patients with productive cough” (60 mg once daily, grade 1 emergent event).
It gave 0% for “patients with productive cough” (30 mg once daily, grade 3 emergent event).
30 mg once daily, grade 2 emergent event — “patients with productive cough”: 0%.
The “patients with productive cough” was 0% (all arms, grade 3 emergent event).
It gave 0% for “patients with productive cough” (60 mg once daily, grade 5 emergent event).

Excerpt of the above (study 2):
The remaining activity was 93.4% (Aurora kinase A (AURKA, Homo sapiens, UniProt O14965)).
Serine/threonine-protein kinase BRSK1 (BRSK1, Homo sapiens, UniProt Q8TDC3) — remaining activity: 92.8%.
It gave 98% for remaining activity (Mitogen-activated protein kinase kinase kinase 2 (MAP3K2, Homo sapiens, UniProt Q9Y2U5)).
Calcium/calmodulin-dependent protein kinase type 1G (CAMK1G, Homo sapiens, UniProt Q96NX5) — remaining activity: 102%.
It gave 89.7% for remaining activity (Serine/threonine-protein kinase N2 (PKN2, Homo sapiens, UniProt Q16513)).
It gave 88.9% for remaining activity (Protein-tyrosine kinase 2-beta (PTK2B, Homo sapiens, UniProt Q14289)).
The remaining activity was 99.5% (Mitogen-activated protein kinase kinase kinase 8 (MAP3K8, Homo sapiens, UniProt P41279)).
